Published values of several laboratories.
Numbered parts are unrelated; each lists some results of a single study. Values joined by “and” are separate records of one study, mostly repeats; a detail may differ.
Sequence of UniProt P11802 (whole entry, looked up): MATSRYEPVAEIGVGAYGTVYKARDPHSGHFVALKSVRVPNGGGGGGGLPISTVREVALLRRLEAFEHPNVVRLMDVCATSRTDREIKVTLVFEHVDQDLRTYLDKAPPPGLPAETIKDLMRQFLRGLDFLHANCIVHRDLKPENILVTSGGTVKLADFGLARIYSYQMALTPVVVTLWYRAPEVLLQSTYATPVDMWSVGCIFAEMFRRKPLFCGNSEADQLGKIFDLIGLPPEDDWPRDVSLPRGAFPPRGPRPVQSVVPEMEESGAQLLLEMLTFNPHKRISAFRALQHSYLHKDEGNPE
Sequence of UniProt Q15349 (whole entry, looked up): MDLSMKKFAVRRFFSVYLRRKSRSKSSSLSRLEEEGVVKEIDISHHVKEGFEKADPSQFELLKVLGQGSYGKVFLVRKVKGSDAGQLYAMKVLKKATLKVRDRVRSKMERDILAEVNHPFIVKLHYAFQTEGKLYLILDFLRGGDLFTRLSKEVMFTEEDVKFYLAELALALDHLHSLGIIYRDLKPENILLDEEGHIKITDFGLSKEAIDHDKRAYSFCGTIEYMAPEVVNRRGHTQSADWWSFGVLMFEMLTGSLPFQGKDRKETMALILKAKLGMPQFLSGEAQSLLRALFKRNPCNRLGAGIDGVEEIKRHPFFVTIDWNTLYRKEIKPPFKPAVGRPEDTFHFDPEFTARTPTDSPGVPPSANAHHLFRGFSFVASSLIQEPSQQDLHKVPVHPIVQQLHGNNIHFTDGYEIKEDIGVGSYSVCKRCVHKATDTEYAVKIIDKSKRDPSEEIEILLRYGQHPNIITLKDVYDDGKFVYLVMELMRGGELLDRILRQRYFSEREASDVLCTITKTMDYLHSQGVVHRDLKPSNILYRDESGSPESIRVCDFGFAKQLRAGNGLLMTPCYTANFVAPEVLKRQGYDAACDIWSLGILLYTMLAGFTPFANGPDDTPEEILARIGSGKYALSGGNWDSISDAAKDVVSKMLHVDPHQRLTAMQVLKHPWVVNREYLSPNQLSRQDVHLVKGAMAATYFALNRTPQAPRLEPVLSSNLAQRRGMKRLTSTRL
Sequence of UniProt P30291 (whole entry, looked up): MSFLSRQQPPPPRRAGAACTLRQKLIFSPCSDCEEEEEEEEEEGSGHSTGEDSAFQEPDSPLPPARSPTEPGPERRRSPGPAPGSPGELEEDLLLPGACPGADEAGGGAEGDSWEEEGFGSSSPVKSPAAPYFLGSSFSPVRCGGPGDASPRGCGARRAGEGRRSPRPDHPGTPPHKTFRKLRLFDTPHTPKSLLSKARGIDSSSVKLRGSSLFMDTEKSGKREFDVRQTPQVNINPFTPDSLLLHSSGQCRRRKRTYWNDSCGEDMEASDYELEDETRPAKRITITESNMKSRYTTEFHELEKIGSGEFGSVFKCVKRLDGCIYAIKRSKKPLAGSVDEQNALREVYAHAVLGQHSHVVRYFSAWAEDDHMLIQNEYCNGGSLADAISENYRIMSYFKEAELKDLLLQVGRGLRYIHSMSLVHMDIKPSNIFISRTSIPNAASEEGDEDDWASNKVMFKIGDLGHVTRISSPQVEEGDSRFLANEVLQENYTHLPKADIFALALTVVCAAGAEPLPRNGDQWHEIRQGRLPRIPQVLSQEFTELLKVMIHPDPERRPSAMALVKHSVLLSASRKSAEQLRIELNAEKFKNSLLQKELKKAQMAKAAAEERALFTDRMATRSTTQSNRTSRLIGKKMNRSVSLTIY
Sequence of UniProt Q99683 (whole entry, looked up): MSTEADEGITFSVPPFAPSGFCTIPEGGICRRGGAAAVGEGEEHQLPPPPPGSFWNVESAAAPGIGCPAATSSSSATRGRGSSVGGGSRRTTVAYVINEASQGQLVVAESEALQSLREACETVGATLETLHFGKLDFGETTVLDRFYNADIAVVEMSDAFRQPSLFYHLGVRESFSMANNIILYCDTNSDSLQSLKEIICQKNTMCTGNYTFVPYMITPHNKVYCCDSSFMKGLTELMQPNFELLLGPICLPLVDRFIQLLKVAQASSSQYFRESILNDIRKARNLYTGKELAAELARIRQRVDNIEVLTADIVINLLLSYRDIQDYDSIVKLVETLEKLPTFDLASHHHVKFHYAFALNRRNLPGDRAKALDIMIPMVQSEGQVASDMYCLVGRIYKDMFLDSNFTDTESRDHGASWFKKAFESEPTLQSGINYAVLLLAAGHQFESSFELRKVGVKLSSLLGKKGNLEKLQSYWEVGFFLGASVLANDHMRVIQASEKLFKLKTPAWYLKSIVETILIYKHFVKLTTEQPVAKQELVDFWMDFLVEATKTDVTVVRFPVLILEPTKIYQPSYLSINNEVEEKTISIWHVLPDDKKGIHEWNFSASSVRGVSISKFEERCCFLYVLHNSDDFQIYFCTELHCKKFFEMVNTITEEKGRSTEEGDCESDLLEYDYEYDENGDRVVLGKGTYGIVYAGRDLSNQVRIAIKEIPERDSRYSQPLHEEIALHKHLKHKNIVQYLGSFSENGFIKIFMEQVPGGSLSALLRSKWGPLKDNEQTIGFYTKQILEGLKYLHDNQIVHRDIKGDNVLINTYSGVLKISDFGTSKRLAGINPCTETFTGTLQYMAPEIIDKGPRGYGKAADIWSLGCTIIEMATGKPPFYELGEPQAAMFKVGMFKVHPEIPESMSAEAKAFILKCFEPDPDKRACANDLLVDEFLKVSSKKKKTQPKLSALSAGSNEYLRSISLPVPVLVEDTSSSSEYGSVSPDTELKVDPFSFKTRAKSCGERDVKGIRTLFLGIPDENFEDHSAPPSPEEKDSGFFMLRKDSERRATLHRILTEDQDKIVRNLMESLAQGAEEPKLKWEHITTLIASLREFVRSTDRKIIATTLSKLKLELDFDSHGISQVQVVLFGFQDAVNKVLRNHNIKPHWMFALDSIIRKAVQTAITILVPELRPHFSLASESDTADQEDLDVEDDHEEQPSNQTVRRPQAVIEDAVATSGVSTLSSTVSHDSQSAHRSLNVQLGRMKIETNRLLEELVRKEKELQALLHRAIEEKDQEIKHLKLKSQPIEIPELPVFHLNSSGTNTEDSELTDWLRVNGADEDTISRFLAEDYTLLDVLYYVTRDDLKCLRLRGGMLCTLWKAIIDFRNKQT
Sequence of UniProt Q8IU85 (whole entry, looked up): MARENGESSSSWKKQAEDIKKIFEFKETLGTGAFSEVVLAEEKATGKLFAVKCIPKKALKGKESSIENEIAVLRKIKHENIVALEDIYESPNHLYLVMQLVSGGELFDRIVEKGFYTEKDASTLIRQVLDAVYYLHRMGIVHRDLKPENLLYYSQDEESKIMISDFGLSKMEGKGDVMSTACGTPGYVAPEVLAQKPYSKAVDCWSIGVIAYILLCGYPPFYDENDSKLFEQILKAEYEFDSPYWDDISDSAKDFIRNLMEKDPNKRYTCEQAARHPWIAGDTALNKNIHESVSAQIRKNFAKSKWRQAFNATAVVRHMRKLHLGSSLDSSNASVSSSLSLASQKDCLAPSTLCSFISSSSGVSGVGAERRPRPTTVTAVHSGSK
Sequence of UniProt P51451 (whole entry, looked up): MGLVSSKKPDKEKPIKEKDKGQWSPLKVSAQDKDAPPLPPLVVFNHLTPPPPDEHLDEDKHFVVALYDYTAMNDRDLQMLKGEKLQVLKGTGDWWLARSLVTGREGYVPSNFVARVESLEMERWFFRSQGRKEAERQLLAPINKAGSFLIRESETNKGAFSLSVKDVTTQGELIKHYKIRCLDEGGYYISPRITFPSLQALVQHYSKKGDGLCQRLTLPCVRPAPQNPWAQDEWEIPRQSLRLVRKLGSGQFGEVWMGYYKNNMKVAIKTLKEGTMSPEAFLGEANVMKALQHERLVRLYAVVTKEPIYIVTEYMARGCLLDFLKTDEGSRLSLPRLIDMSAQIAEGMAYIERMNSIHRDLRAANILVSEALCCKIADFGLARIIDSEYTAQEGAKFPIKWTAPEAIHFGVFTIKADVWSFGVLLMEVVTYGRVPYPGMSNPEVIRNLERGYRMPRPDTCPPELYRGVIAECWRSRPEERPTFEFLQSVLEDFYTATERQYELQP
Sequence of UniProt Q13131 (whole entry, looked up): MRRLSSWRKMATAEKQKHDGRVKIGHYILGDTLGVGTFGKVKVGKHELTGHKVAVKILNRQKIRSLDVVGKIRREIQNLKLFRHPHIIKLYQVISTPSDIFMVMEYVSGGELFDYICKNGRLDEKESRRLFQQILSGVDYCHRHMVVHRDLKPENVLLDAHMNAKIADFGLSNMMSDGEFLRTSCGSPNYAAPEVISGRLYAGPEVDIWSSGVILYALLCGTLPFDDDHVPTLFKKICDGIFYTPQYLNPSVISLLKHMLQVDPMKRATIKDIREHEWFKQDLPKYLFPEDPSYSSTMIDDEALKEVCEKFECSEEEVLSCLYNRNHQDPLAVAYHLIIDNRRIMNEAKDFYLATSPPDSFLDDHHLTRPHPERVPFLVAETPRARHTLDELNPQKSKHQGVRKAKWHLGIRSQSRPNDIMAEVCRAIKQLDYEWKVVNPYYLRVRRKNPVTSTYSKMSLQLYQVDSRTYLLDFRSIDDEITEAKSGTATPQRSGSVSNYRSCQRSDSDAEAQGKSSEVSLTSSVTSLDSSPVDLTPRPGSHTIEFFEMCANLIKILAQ

Set 1
Compound: CC(C)(C(=O)O)[C@H](NC(=O)Cc1cccc(I)c1)c1ccc2oc(=O)[nH]c2c1
Technique: Incucyte 3D growth
Concentration: 30 µM
Direction: higher = more growth
It gave 4.05e+07 a.u. and 3.66e+07 a.u. and 4.25e+07 a.u. and 4.27e+07 a.u. and 3.08e+07 a.u. and 6.83e+07 a.u. for spheroid area (MEL-JUSO; 390.52 h).
NCI-H358; 198 h — spheroid area: 6.71e+06 a.u. and 7.08e+06 a.u. and 8.16e+06 a.u. and 1.12e+07 a.u. and 7.81e+06 a.u. and 8.66e+06 a.u.
MEL-JUSO; 0 h — spheroid area: 2.15e+07 a.u. and 2.13e+07 a.u. and 1.62e+07 a.u. and 2.17e+07 a.u. and 1.68e+07 a.u.
The spheroid area was 3.53e+07 a.u. and 4.83e+07 a.u. and 3.51e+07 a.u. and 5.04e+07 a.u. and 3.07e+07 a.u. and 4.01e+07 a.u. (NCI-H1437; 168 h).
The spheroid area was 1.27e+08 a.u. and 1.53e+08 a.u. and 1.13e+08 a.u. and 1.29e+08 a.u. and 1.26e+08 a.u. (A375; 222 h).
It gave 1.24e+07 a.u. and 6.94e+06 a.u. and 5.46e+06 a.u. and 5.89e+06 a.u. and 6.43e+06 a.u. and 6.1e+06 a.u. for spheroid area (A375; 6 h).
For MEL-JUSO; 438.52 h: spheroid area read 2.48e+07 a.u. and 7.45e+07 a.u. and 3.06e+07 a.u. and 3.11e+07 a.u. and 2.92e+07 a.u. and 5.17e+07 a.u.
The spheroid area was 1.69e+07 a.u. and 2.03e+07 a.u. and 1.71e+07 a.u. and 1.86e+07 a.u. and 1.81e+07 a.u. and 2.15e+07 a.u. (MEL-JUSO; 168.52 h).
It gave 4.41e+07 a.u. and 5.06e+07 a.u. and 5.23e+07 a.u. and 7.72e+07 a.u. and 5.31e+07 a.u. and 2.33e+07 a.u. for spheroid area (KP-4; 240 h).
MEL-JUSO; 90.52 h — spheroid area: 1.49e+07 a.u. and 1.53e+07 a.u. and 1.47e+07 a.u. and 1.57e+07 a.u. and 1.63e+07 a.u. and 1.51e+07 a.u.

Set 2
Structure (SMILES): CCCOc1ccc([C@H]2[C@H](C(=O)O)[C@@H](c3ccc4c(c3)OCO4)CN2CC(=O)Nc2c(CC)cccc2CC)cc1
Observed: cell-free assay
Technique: competition with immobilised ligand
Concentration: 1 µM
The remaining binding was 88% (PIM3 (Homo sapiens, UniProt Q86V86)).
FLT3 (Homo sapiens, UniProt P36888, R834Q) — remaining binding: 91%.
CDK4 (Homo sapiens, UniProt P11802) — remaining binding: 100%.
Tyrosine-protein kinase ABL1, phosphorylated (ABL1, Homo sapiens, UniProt P00519, T315I) — remaining binding: 77%.
For ROS1 (Homo sapiens, UniProt P08922): remaining binding read 98%.
Tyrosine-protein kinase ABL1, phosphorylated (ABL1, Homo sapiens, UniProt P00519, M351T) — remaining binding: 69%.
MAP3K5 (Homo sapiens, UniProt Q99683) — remaining binding: 91%.
For Cyclin-dependent kinase 4, with cyclin D3 (CDK4, Homo sapiens, UniProt P11802): remaining binding read 89%.
For BLK (Homo sapiens, UniProt P51451): remaining binding read 88%.
The remaining binding was 75% (CAMK1D (Homo sapiens, UniProt Q8IU85)).
It gave 100% for remaining binding (FGFR3 (Homo sapiens, UniProt P22607)).
The remaining binding was 99% (YES1 (Homo sapiens, UniProt P07947)).
WEE1 (Homo sapiens, UniProt P30291) — remaining binding: 93%.
For PRKAA1 (Homo sapiens, UniProt Q13131): remaining binding read 100%.
Ribosomal protein S6 kinase alpha-2, C-terminal kinase domain (RPS6KA2, Homo sapiens, UniProt Q15349) — remaining binding: 82%.

Set 3
Medium: hydrocarbon/water
`CC(C)C[C@@H]1NC(=O)[C@H](Cc2ccccc2)NC(=O)[C@H]2CCCN2C(=O)[C@H](CC(C)C)NC(=O)[C@H](CC2CCCCC2)NC(=O)[C@@H](CC(C)C)NC1=O` gave a logD of 2.35.
The logD of `CCC[C@H]1NC(=O)[C@H](CC(C)C)NC(=O)[C@H](Cc2ccccc2)NC(=O)[C@H]2CCCN2C(=O)[C@H](CC2CCCCC2)NC(=O)[C@H](CC2CCCCC2)NC1=O` is reported as 2.82.
`CCC[C@@H]1NC(=O)CN(CC)C(=O)[C@H](CC(C)C)NC(=O)Cn2cc(nn2)CN(C)C(=O)[C@H](CC(C)C)NC(=O)[C@H](C)N(C)C(=O)[C@H](CC)NC(=O)[C@H](C)N(C)C(=O)[C@H]2CCCN2C1=O` has a logD of -2.49.
`CCCCCN1CC(=O)NC(CC(C)C)C(=O)N(C)C(C)C(=O)NC(C)C(=O)N2CCCC2C(=O)N(Cc2ccc3c(c2)OCO3)CC(=O)NC(CC(C)C)C(=O)N(C)C(C)C(=O)NC(CC(C)C)C(=O)N2CCCC2C1=O` (stereo not drawn) has a logD of 2.75.
`CC[C@@H]1C(=O)N(C)[C@@H](CC(C)C)C(=O)N[C@@H](CC(C)C)C(=O)N2CCC[C@@H]2C(=O)N(C)[C@@H](CC2CCCCC2)C(=O)N[C@@H](CC(C)C)C(=O)N1C` gave a logD of 3.21.
`CCOC(=O)[C@@H]1CSCC(=O)N[C@H](CC)C(=O)N(C)[C@@H](C)C(=O)N[C@@H](CC(C)C)C(=O)N2CCC[C@@H]2C(=O)N(CC)CC(=O)N[C@@H](CC(C)C)C(=O)N(C)[C@H](C)C(=O)N[C@@H](CC(C)C)C(=O)N1C` has a logD of 0.481.
`CCC[C@H]1NC(=O)CSC[C@@H](C(=O)OCC)N(C)C(=O)[C@H](CC(C)C)NC(=O)[C@H](C)N(C)C(=O)[C@H](CC(C)C)NC(=O)[C@H](C)N(C)C(=O)[C@H]2CCCN2C(=O)[C@H](CC(C)C)NC(=O)CN(CCC)C1=O` gave a logD of 1.34.
The logD of `CC(C)C[C@@H]1NC(=O)CN(Cc2ccc3c(c2)OCO3)C(=O)[C@H](C)NC(=O)[C@H](CC(C)C)N(C)C(=O)[C@H]2CCCN2C(=O)[C@H](Cc2ccccc2)NC(=O)CN(CC2CCOCC2)C(=O)[C@H](C)NC(=O)[C@H](CC(C)C)N(C)C(=O)[C@H]2CCCN2C1=O` is reported as 2.09.

Set 4
Cell line: A-375
Concentration: 100 µM
Time: 18 h
With `CCCC(=O)OCOC(=O)C1=C(C)NC(C)=C(C(=O)OC)C1c1cccc(Cl)c1Cl` (stereo not drawn) the viability was 22.4%.
For `O=C1CN(/N=C/c2ccc([N+](=O)[O-])o2)C(=O)N1`, the viability was 79.3%.
`CC[C@H](C)C(=O)O[C@H]1CCC=C2C=C[C@H](C)[C@H](CC[C@@H]3C[C@@H](O)CC(=O)O3)[C@H]21` gave a viability of 10.5%.
The viability of `CC(C(=O)O)c1ccc2c(c1)[nH]c1ccc(Cl)cc12` (stereo not drawn) is reported as 72.4%.
`Cn1c(=O)c2[nH]c(Br)nc2n(C)c1=O` has a viability of 99.7%.
With `O=C(CCNNC(=O)c1ccncc1)NCc1ccccc1` the viability was 105%.
The viability of `COc1ccc(-c2nc3ccc(C4=NNC(=O)CC4C)cc3[nH]2)cc1` (stereo not drawn) is reported as 28.3%.
For `CNNCc1ccc(C(=O)NC(C)C)cc1`, the viability was 104%.
`COc1cc(C=O)ccc1O` gave a viability of 100%.
`CNCCCN1c2ccccc2CCc2ccccc21` has a viability of 10%.
`Cc1cccc(C)c1OCC(=O)N[C@@H](Cc1ccccc1)[C@@H](O)C[C@H](Cc1ccccc1)NC(=O)[C@H](C(C)C)N1CCCNC1=O` gave a viability of 26.6%.
The viability of `CCNC(=O)CCC/C=C\C[C@@H]1[C@@H](/C=C/[C@@H](O)CCc2ccccc2)[C@H](O)C[C@@H]1O` is reported as 108%.
The viability of `COc1cc(/C=C/C(=O)O)ccc1O` is reported as 106%.
For `Fc1ccc([C@@H]2CCNC[C@H]2COc2ccc3c(c2)OCO3)cc1`, the viability was 8.53%.
For `O=C(O)CC(O)(CC(=O)O)C(=O)O`, the viability was 92.5%.
